{"data": "Measurements collected from several papers", "note": "Every numbered part comes from another study and shows a few of its results, in no order."}
{"data": "Sample 1", "target": "Histone acetyltransferase KAT6A, winged helix 2, GST fusion (KAT6A, Homo sapiens, UniProt Q92794, residues 85-181)", "technique": "protein binding microarray", "molecule type": "double-stranded DNA, one strand shown", "matrix": "in vitro", "tested at": "not given", "setting": "8-mer, flanks averaged, mean of 2 arrays, mostly near background", "relative to": "not given", "reading": "higher = stronger binding", "Construct (chain)": "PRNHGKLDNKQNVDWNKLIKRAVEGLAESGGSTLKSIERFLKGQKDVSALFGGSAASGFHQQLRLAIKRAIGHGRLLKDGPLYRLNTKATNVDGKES"}
{"Sequence": "AATGATCA", "E-score": -0.0439}
{"Sequence": "AGGTAATC", "E-score": -0.0198}
{"Sequence": "AGAAATCT", "E-score": 0.0201}
{"Sequence": "ACCGGGTC", "E-score": -0.0741}
{"Sequence": "GGAGGCGA", "E-score": 0.0222}
{"data": "Sample 2", "target": "Prothrombin, mature alpha-thrombin (F2, Homo sapiens, UniProt P00734)", "technique": "aptamer microarray, sandwich", "molecule type": "DNA with 2'F-ANA", "matrix": "in vitro", "tested at": "200 nM", "setting": "whole 15-mer aptamer, many near background", "together with": "Cy3 exosite-II aptamer, 400 nM", "reading": "higher = stronger binding", "sequence": "GGTTGGTGTGGTTGG"}
{"Modification": "2'F-ANA at 2 4 5 9 10 11 13 15", "mean fluorescence intensity [a.u.]": 43.8}
{"Modification": "2'F-ANA at 1 2 4 5 6 7 10 12", "mean fluorescence intensity [a.u.]": 52.2}
{"Modification": "2'F-ANA at 3 5 9 11 14", "mean fluorescence intensity [a.u.]": 90.5}
{"Modification": "2'F-ANA at 3 5 7 9 10 13 15", "mean fluorescence intensity [a.u.]": 56.4}
{"Modification": "2'F-ANA at 1 2 3 4 7 10 11 12 14 15", "mean fluorescence intensity [a.u.]": 61.6}
{"data": "Sample 3", "target": "Sal-like protein 4, full length isoform B (SALL4, Homo sapiens, UniProt Q9UJQ4-2, residues 1-616)", "technique": "universal PBM", "molecule type": "double-stranded DNA, one strand shown", "matrix": "in vitro", "tested at": "not given", "setting": "8-mer, flanks averaged, mean of replicates", "reading": "higher = stronger binding"}
{"Sequence": "CATCTGCA", "E-score": 0.0643}
{"Sequence": "ACAGGTGC", "E-score": -0.129}
{"Sequence": "GCGTCAAC", "E-score": -0.249}
{"Sequence": "GTGTAAGA", "E-score": 0.13}
{"Sequence": "ATACACTA", "E-score": 0.192}
{"Sequence": "AGCTAGCA", "E-score": -0.17}
{"data": "Further values, each from its own experiment"}
{"Molecule": "PhoQ, residues 284 288 289 292 302 303 WVSSAF", "target": "PhoP, residues 12 14 15 18 19 LHTVM (Escherichia coli, UniProt P23836)", "test": "Sort-seq, measured: YFP reporter", "test system": "E. coli", "conditions": "PhoQ-PhoP variant library, together with: 10 µM Mg2+", "scale": "relative to: high Mg2+ state, higher = stronger signaling", "endpoint": "fold induction", "result": 5.6}
